Experimental data collected from several papers.
Lines come from different studies, so protocols differ. ± gives the spread as reported.

Structure (SMILES) = NC[C@H](NC(=O)c1ccc(-c2ccc(Br)cc2)cc1)C(=O)NO; system = aqueous buffer; conditions = pH 7.4; measurement = thermodynamic solubility; result = < 7.14 µM
Structure (SMILES) = CC[C@H](C)[C@H](NC(=O)[C@H](Cc1ccccc1)NC(=O)[C@H](CCC(=O)O)NC(=O)[C@H](CCCNC(=N)N)NC(=O)[C@H](C)NC(=O)[C@H](C)NC(=O)[C@H](CCC(N)=O)NC(=O)[C@H](CCC(=O)O)NC(=O)[C@H](CCC(=O)O)NC(=O)[C@H](CC(C)C)NC(=O)[C@H](Cc1ccc(O)cc1)NC(=O)[C@H](CO)NC(=O)[C@H](CO)NC(=O)[C@@H](NC(=O)[C@H](CC(=O)O)NC(=O)[C@H](CO)NC(=O)[C@@H](NC(=O)[C@H](Cc1ccccc1)NC(=O)[C@@H](NC(=O)CNC(=O)[C@H](CCC(=O)O)NC(=O)[C@H](C)NC(=O)CCc1c[nH]cn1)[C@@H](C)O)[C@@H](C)O)C(C)C)C(=O)N[C@@H](C)C(=O)N[C@@H](Cc1c[nH]c2ccccc12)C(=O)N[C@@H](CC(C)C)C(=O)N[C@H](C(=O)N[C@@H](CCCNC(=N)N)C(=O)NCC(=O)N[C@@H](CCCNC(=N)N)C(=O)N[C@@H](CCCCNC(=O)COCCOCCNC(=O)COCCOCCNC(=O)CC[C@H](NC(=O)CCCCCCCCCCCCCCCCC(=O)O)C(=O)O)C(=O)O)C(C)C; system = rat, plasma; conditions = intravenous, 20 nmol/kg; measurement = MRT; result = 12.9 h
Structure (SMILES) = COc1ccc2c(c1)CN(C(=O)CCN1CCC(Cc3ccccc3)CC1)CC[S@@+]2[O-]; system = rat plasma; conditions = 100 ng/mL; measurement = fu; result = 0.255
Structure (SMILES) = NC(=O)N1c2ccccc2CC(O)c2ccccc21 (stereo not drawn); assay = population PK, bootstrap median; system = human patients, plasma; measurement = clearance; result = 3.04 L/h
Structure (SMILES) = CCc1cc(C(=O)NC)c2nccc(N3CCc4c(cc(Cn5ccnc5)cc4-c4cn(C)nc4C(F)(F)F)C3=O)c2c1; system = Sprague Dawley rats; conditions = oral, 100 mg/kg once daily, 7 days; measurement = serum cholesterol; result = 2.4 ± 0.52 mmol/L
Structure (SMILES) = OC[C@H]1O[C@@H](c2cc(Cc3ccc(C4CC4)cc3)c(Cl)c3c2CCO3)[C@H](O)[C@@H](O)[C@@H]1O; system = healthy Korean adults, fasted, plasma; conditions = oral, 0.3 mg single dose, fixed-dose combination tablet, with: co-administered drug 50 mg; measurement = apparent clearance CL/F; result = 8540 ± 2340 mL/h
Structure (SMILES) = COc1c(O)cc(C(=O)O)cc1O; system = broiler chickens, serum; conditions = oral, in feed, 2000 mg/kg feed, corn diet, no tannins; measurement = AUC; result = 0.47 ± 0.15 µM·h
Structure (SMILES) = C=CC(=O)N(C)CCOc1c(N)ncnc1-c1cc(F)cc(NC(=O)c2ccc(C3CC3)cc2F)c1C; system = human, whole blood; conditions = oral, 600 mg single dose; measurement = AUC; result = 1160 ng·h/mL
Structure (SMILES) = CC(C)n1c(Nc2cccnc2)nc2cnc(Nc3ccc(N4CCN(C)CC4)cc3)nc21; assay = item: investigations (SOC); system = healthy male subjects; conditions = oral, 150 mg, study, with: rifampin; measurement = subjects with adverse event; result = 50%
Structure (SMILES) = Cc1ccc(Sc2ccccc2N2CCNCC2)c(C)c1; assay = item: protein in urine; system = healthy adult men; conditions = oral, 20 mg daily, 12 days; measurement = participants with TEAE; result = 16.7%
Structure (SMILES) = CCCCC[C@H](O)CC[C@@H]1[C@H]2Cc3cccc(OCC(=O)O)c3C[C@H]2C[C@H]1O; assay = LC-MS/MS; system = Japanese IPAH/HPAH patients, plasma; conditions = inhaled, 54 µg; measurement = geometric mean Cmax; result = 0.93 ng/mL
Structure (SMILES) = O=C1CCc2ccc(OCCCCN3CCN(c4cccc(Cl)c4Cl)CC3)cc2N1; assay = item: Akathisia; system = genotyped patients, CYP2D6 ultrarapid metabolizers; conditions = dose not given, long-acting oral or depot; measurement = adverse event incidence; result = 11%
Structure (SMILES) = C[C@@H]1COCCN1c1cc(C2([S@](C)(=N)=O)CC2)nc(-c2cc[nH]c3nccc2-3)n1; system = Japanese advanced solid tumour patients; conditions = oral, 240 mg twice daily, any grade; measurement = Fatigue incidence; result = 16.7%
Structure (SMILES) = CNC(=O)c1ccc(-c2cnc3ncc(Cc4ccc5ncccc5c4)n3n2)cc1F; system = Japanese patients; conditions = oral, 400 mg twice daily, grade 3/4; measurement = Vertigo patients; result = 0%
Structure (SMILES) = c1ccc(-c2nc(N3CCCC(c4ccccn4)C3)c3ccccc3n2)nc1 (stereo not drawn); system = Japanese Pharmacopoeia disintegration test solution 2; conditions = pH 6.8; measurement = kinetic solubility; result = 0.081 mg/mL
Structure (SMILES) = Cc1c(-c2ccc(N3CCc4cccc(C(=O)Nc5nc6ccccc6s5)c4C3)nc2C(=O)O)cnn1CC12CC3(C)CC(C)(C1)CC(OCCNCC[C@H](O)CO)(C3)C2; system = beagle dog, male, anaesthetised; conditions = intravenous infusion, 0.3 mg/kg/min, 45 min; scale = baseline: vehicle; measurement = mean arterial pressure change; result = -24%
Structure (SMILES) = O=C(Nc1nc2cccc(-c3ccc(CN4CCS(=O)(=O)CC4)cc3)n2n1)C1CC1; assay = item: animal bite; system = human rheumatoid arthritis patients; conditions = oral, 200 mg once daily, 4 weeks, regardless of relatedness; measurement = treatment-emergent adverse events; result = 0%
Structure (SMILES) = CC=CC1CCC(C2CCC(CCC)CC2)CC1 (stereo not drawn); system = rat, placenta; conditions = 5000 ng/mL in perfusate, high dose, mixture of 21 LCMs; measurement = median placental accumulation; result = 184 ng/g
Structure (SMILES) = N#CCC1CCN(c2nc(Nc3ccc(N4CCC(O)CC4)cc3)c3c(=O)[nH]ncc3n2)CC1; system = human, plasma; conditions = oral, 80 mg once daily, day 1; measurement = t1/2; result = 11.2 h
Structure (SMILES) = COc1cc2nccc(Oc3ccc(NC(=O)C4(C(=O)Nc5ccc(F)cc5)CC4)cc3)c2cc1OC; system = patients with relevant toxicity (grade 3-4 or dose reduction), plasma; conditions = oral, dose not given, mean; measurement = Ctrough; result = 950 ng/mL
Structure (SMILES) = CN(CCCN1CCN(C(=O)CN2CCN(CC(=O)[O-])CCN(CC(=O)[O-])CCN(CC(=O)[O-])CC2)CC1)c1ccc2nccc(C(=O)NCC(=O)N3CC(F)(F)C[C@H]3C#N)c2c1.[68Ga+3]; system = mouse HT-1080-hFAP and HT-1080 xenografts, HT-1080 wild-type tumour; conditions = intravenous, 500 pmol, 4 h; measurement = uptake; result = 0.3 ± 0.1 %IA/g
Structure (SMILES) = C[Si](C)(C)O[Si](C)(C)O[Si](C)(C)C; system = 1-octanol/water; conditions = 1.9-6.0 µg/L in water, 35.0 °C; measurement = log KOW; result = 6.75
Structure (SMILES) = CC/C=C\C/C=C\C/C=C\C/C=C\C/C=C\C/C=C\CCC(=O)O.Cc1cc(/C=C/C#N)cc(C)c1Nc1ccnc(Nc2ccc(C#N)cc2)n1; system = Capryol 90; measurement = kinetic solubility; result = ~50 mg/mL
Structure (SMILES) = COc1cc(Nc2ncc3c(n2)-c2ccc(Cl)cc2C(c2c(F)cccc2OC)=NC3)ccc1C(=O)O; system = cancer patients; conditions = oral, dose not given, all grades any attribution, with: pembrolizumab; measurement = patients with decreased ejection fraction; result = 4%
Structure (SMILES) = Cn1cc(Nc2nccc(-c3ccc4c(c3)CN(C3COC3)CC[C@H]4NC(=O)c3cn(C(C)(C)C)nn3)n2)cn1; system = human, whole blood; conditions = 50 mg twice daily, day 14; scale = baseline: pre-dose baseline; measurement = class-switched memory B cell change; result = 28.8%
Structure (SMILES) = C[C@@H](NC(=O)N1C(=O)[C@H](Cc2ccnc(N)c2)[C@H]1C(=O)O)C1CCCCC1; assay = UPLC-MS/MS; system = healthy adult Chinese volunteers, plasma; conditions = continuous intravenous infusion, 2.25 mg/kg/h, day 6 of 5-day infusion, mean; measurement = Vd; result = 0.521 L/kg
Structure (SMILES) = COc1ccc2[nH]c([S+]([O-])Cc3ncc(C)c(OC)c3C)nc2c1 (stereo not drawn); system = healthy Chinese volunteers CYP2C19 PM, plasma; conditions = oral, 20 mg single dose, enteric-coated capsules; measurement = AUC(0-t); result = 3430 ± 1500 ng·h/mL
Structure (SMILES) = N#Cc1ccc2c(c1)[C@H]1CCCN(C(=O)c3ccc4[nH]cnc4c3)[C@H]1C2; system = human males; conditions = 360 mg, end of trial; measurement = DHEA-S level; result = 4.1 µmol/L
Structure (SMILES) = C=CC(=O)Nc1cc(Nc2nccc(-c3cn(C)c4ccccc34)n2)c(OC)cc1N(C)CCN(C)C; assay = storage stability; system = human dried blood spot; conditions = 30 d, on ice, HQC level; measurement = recovery; result = 53.3%
Structure (SMILES) = CN[C@@H](C)C(=O)N[C@H]1CN(S(=O)(=O)c2cccc(S(=O)(=O)N3CC[C@H]4CC[C@@H](C(=O)NC(c5ccccc5)c5ccccc5)N4C(=O)[C@@H](NC(=O)[C@H](C)NC)C3)c2)CC[C@H]2CC[C@@H](C(=O)NC(c3ccccc3)c3ccccc3)N2C1=O; assay = LC-MS/MS; system = human, advanced solid tumours, plasma; conditions = intravenous, 30 mg weekly, day 1; measurement = AUC(0-t); result = 529 ± 182 ng·h/mL
Structure (SMILES) = N/N=c1\[nH][nH]/c(=N\N)c2ccccc12.O=S(=O)(O)O; target or system = Nedd8-cullin1 interaction; assay = neddylation, AlphaScreen; conditions = 100 µM; measurement = inhibition; result = 104%
Structure (SMILES) = N#Cc1ccc(-c2cnc3ccc(-c4ccc(C(=O)N5CCOCC5)cc4)cn23)cc1; assay = item: QT interval; system = healthy volunteers; conditions = oral, 10 mg, fasted, time-averaged; measurement = placebo-corrected change from baseline; result = 9.5 ms
Structure (SMILES) = Cc1ccccc1N1C(=O)c2cc(S(N)(=O)=O)c(Cl)cc2NC1C (stereo not drawn); target or system = Nedd8-cullin1 interaction; assay = neddylation, AlphaScreen; conditions = 100 µM; measurement = inhibition; result = 16.5%
Structure (SMILES) = COc1c(C)c2c(c(O[C@@H]3O[C@H](C(=O)O)[C@@H](O)[C@H](O)[C@H]3O)c1C/C=C(\C)CCC(=O)O)C(=O)OC2; system = healthy humans; conditions = oral, dose not given, with: isavuconazole co-administration; scale = baseline: with isavuconazole over MMF alone; measurement = AUC0–∞ geometric mean ratio; result = 76%
Structure (SMILES) = COc1cc2[nH]c(C)c(-c3ccc(N(C)C)nc3)c(=O)c2cc1Cl; conditions = pH 7.4; measurement = kinetic solubility; result = 6 to 12 µM
Structure (SMILES) = O=S(=O)(c1ccc(-c2ccc3nccc(Nc4ccncn4)c3c2)cc1)N1CCOCC1; system = female BALB/c mice, brain; conditions = intraperitoneal, 10 mg/kg, 1 h, mean; measurement = brain concentration; result = 67.3 ng/g
Structure (SMILES) = c1csc(CNc2cc[nH]n2)c1; assay = DNA damage, alkaline comet; system = Hsd:ICR(CD-1) mice, male, liver; conditions = oral gavage, 125 mg/kg/day, 3 days; measurement = tail DNA (mean); result = 1.8%
Structure (SMILES) = CCC(C)n1ncn(-c2ccc(N3CCN(c4ccc(OCC5COC(Cn6cncn6)(c6ccc(Cl)cc6Cl)O5)cc4)CC3)cc2)c1=O (stereo not drawn); system = human K3EDTA plasma; conditions = -80 °C; measurement = storage stability; result = 387 days
Structure (SMILES) = O=C(N[C@H](Cc1c[nH]c2ccccc12)C(=O)Nc1ccncc1)c1ccc(-c2ccc(F)c(C(F)(F)F)c2)cc1F; system = Swiss Webster mouse, female, plasma; conditions = oral, 50 mg/kg, 8 h, 20% HPβCD vehicle; measurement = concentration; result = 1530 nM

For quick reference, copied from above:
Structure (SMILES) = NC[C@H](NC(=O)c1ccc(-c2ccc(Br)cc2)cc1)C(=O)NO; system = aqueous buffer; conditions = pH 7.4; measurement = thermodynamic solubility; result = < 7.14 µM
Structure (SMILES) = CN(CCCN1CCN(C(=O)CN2CCN(CC(=O)[O-])CCN(CC(=O)[O-])CCN(CC(=O)[O-])CC2)CC1)c1ccc2nccc(C(=O)NCC(=O)N3CC(F)(F)C[C@H]3C#N)c2c1.[68Ga+3]; system = mouse HT-1080-hFAP and HT-1080 xenografts, HT-1080 wild-type tumour; conditions = intravenous, 500 pmol, 4 h; measurement = uptake; result = 0.3 ± 0.1 %IA/g
Structure (SMILES) = CN[C@@H](C)C(=O)N[C@H]1CN(S(=O)(=O)c2cccc(S(=O)(=O)N3CC[C@H]4CC[C@@H](C(=O)NC(c5ccccc5)c5ccccc5)N4C(=O)[C@@H](NC(=O)[C@H](C)NC)C3)c2)CC[C@H]2CC[C@@H](C(=O)NC(c3ccccc3)c3ccccc3)N2C1=O; assay = LC-MS/MS; system = human, advanced solid tumours, plasma; conditions = intravenous, 30 mg weekly, day 1; measurement = AUC(0-t); result = 529 ± 182 ng·h/mL
Structure (SMILES) = Cc1ccccc1N1C(=O)c2cc(S(N)(=O)=O)c(Cl)cc2NC1C (stereo not drawn); target or system = Nedd8-cullin1 interaction; assay = neddylation, AlphaScreen; conditions = 100 µM; measurement = inhibition; result = 16.5%
Structure (SMILES) = CC(C)n1c(Nc2cccnc2)nc2cnc(Nc3ccc(N4CCN(C)CC4)cc3)nc21; assay = item: investigations (SOC); system = healthy male subjects; conditions = oral, 150 mg, study, with: rifampin; measurement = subjects with adverse event; result = 50%
Structure (SMILES) = N#Cc1ccc2c(c1)[C@H]1CCCN(C(=O)c3ccc4[nH]cnc4c3)[C@H]1C2; system = human males; conditions = 360 mg, end of trial; measurement = DHEA-S level; result = 4.1 µmol/L
